Results of several laboratories.
Lines come from different studies, so protocols differ. ± marks the error that the study gave.
Target: Serine/threonine-protein kinase PLK1 (PLK1, Homo sapiens, UniProt P53350)
Chain of UniProt P53350 (whole entry, looked up): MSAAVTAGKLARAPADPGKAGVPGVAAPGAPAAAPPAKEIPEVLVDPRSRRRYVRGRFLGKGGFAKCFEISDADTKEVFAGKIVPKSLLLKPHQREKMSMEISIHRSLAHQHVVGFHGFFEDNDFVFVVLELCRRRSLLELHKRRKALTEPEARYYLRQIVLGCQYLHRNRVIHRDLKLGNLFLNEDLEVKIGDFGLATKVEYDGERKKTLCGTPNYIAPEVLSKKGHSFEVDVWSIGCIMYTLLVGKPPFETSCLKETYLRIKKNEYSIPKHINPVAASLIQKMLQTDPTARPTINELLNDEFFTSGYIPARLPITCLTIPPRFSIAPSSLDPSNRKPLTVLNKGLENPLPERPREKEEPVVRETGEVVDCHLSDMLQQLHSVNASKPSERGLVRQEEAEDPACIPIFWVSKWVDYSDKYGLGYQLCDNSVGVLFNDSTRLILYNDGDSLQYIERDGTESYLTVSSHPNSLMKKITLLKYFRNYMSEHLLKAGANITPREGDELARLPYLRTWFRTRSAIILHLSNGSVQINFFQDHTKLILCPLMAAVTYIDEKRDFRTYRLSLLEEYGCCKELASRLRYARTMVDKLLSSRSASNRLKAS

SMILES	test	system	setting	how to read	measurement	result
Cc1ncsc1-c1ccc([C@H](C)NC(=O)[C@@H]2C[C@@H](O)CN2C(=O)[C@@H](NC(=O)CCCCCCCCC(=O)N(CCO)CCCOc2ccc3c(Nc4cc(CC(=O)Nc5cccc(F)c5)[nH]n4)ncnc3c2)C(C)(C)C)cc1	degradation, Western blot	PC-3 and HPAF-II	1 µM, 24 h		protein level	no effect
CSCC[C@H](NC(C)=O)C(=O)N[C@@H](CC(=O)O)C(=O)N1CCC[C@H]1C(=O)N1CCC[C@H]1C(=O)N[C@@H](CC(C)C)C(=O)N[C@@H](Cc1c[nH]cn1)C(=O)N[C@@H](CO)C(=O)N[C@H](C(=O)N[C@@H](C)C(N)=O)[C@@H](C)OP(=O)(O)O	polo-box domain binding, isothermal titration calorimetry		concentration not given, 25 °C		binding stoichiometry	0.98
O=C1NC(=O)/C(=C/c2ccc(-c3ccc(F)cc3O)o2)S1	enzyme activity		10 µM		remaining activity	90%
O=C(NC1CCC1)c1ccc2nc(-c3cccc(NS(=O)(=O)NCCN4CCCCC4)c3)cn2c1	enzyme activity		10 µM		remaining activity	96%
COc1cc(F)ccc1-c1ncnc(Nc2cccc(C[S@](C)(=N)=O)c2)n1	kinase activity		10 µM, added: 10 µM ATP		remaining activity	105%
Cc1cc(Nc2cc(N3CCN(C)CC3)nc(Sc3ccc(NC(=O)C4CC4)cc3)n2)[nH]n1	kinase activity, KinaseProfiler		0.03 µM, species human	relative to: control	remaining activity	81%
CC(=O)N[C@@H](Cc1c[nH]c2ccccc12)C(=O)N[C@@H](CC(=O)O)C(=O)N1CCC[C@H]1C(=O)N1CCC[C@H]1C(=O)N[C@@H](CC(C)C)C(=O)N[C@@H](Cc1c[nH]cn1)C(=O)N[C@@H](CO)C(=O)N[C@H](C(=O)N[C@@H](C)C(N)=O)[C@@H](C)OP(=O)(O)O	polo-box domain binding, isothermal titration calorimetry		concentration not given, 25 °C		binding enthalpy	-18.6 ± 0.14 kcal/mol
CC[C@@H]1[C@H](F)C(=O)N[C@@H]1COc1nccc2cc(C(N)=O)c(OC)cc12	ATP-site probe binding, ActivX profiling	THP-1 cell lysate	0.2 mM, Lys2 site		inhibition	-0.18%

A few entries again:
SMILES	test	system	setting	how to read	measurement	result
CC[C@@H]1[C@H](F)C(=O)N[C@@H]1COc1nccc2cc(C(N)=O)c(OC)cc12	ATP-site probe binding, ActivX profiling	THP-1 cell lysate	0.2 mM, Lys2 site		inhibition	-0.18%
